# Measured values of several laboratories.
# Protocols differ between the studies behind these lines. “And” joins repeats or separate records; there may be more than shown.
Compound,target or system,test,test system,conditions,how to read,endpoint,result
O=c1[nH]nc(OCCCc2ccc(Cl)cc2)c(NCc2cccnc2)c1Br,HEK-293T,"RNA-seq GSEA, measured: Hallmark apical junction",,concentration not given,direction not given,normalized enrichment score,-1.59
CCn1cc(-c2cc(Cn3ccnc3)cc3c2CCN([C@H](c2cc(OC)ccn2)C2CC2)C3=O)c(C(F)(F)F)n1,COLO-741,"cell growth, inhibitor",,120 h,,EC50,1.84 µM
CC(C)NCC(O)c1ccc(O)c(O)c1 (stereo not shown),mouse ventricular cardiomyocytes,,,"dose not given, 0.007 s",,sarcomere length,1.8 µm
Nc1cccc2c1C(=O)N(C1CCC(=O)NC1=O)C2=O (stereo not shown),MM1.S resistant to compound,XTT,,1 µM,,viability,88% and 52% and 56%
O=C(NCc1cc[nH]n1)c1ccc(C2CCCCC2)cc1,,liver microsome stability,mouse liver microsomes,1 µM,,hepatic clearance,82 mL/min/kg
Cc1cc(Nc2ncc(Cl)c(Nc3ccccc3S(=O)(=O)C(C)C)n2)c(OC(C)C)cc1C1CCNCC1,CLB-GE,"phosphoproteomics LC-MS/MS, measured: SUN2 phosphorylation",,"200 nM, 60 min",reference: untreated,log2 fold change,-2.54
O=C(/C=C/C=C/C=C/C1CCCCC1)NC1=C[C@@](O)(/C=C/C=C/C=C/C(=O)NC2=C(O)CCC2=O)[C@@H]2O[C@@H]2C1=O,Li-7,"cell growth, CellTiter-Glo",,78 h,,GI50,13.9 µM
COc1cnc2cccc(N3CCc4c(cc(Cn5ccnc5C)cc4-c4cn(C)nc4C(F)(F)F)C3=O)c2c1,BICR16,cell growth,,120 h,,EC50,> 30 µM
O=c1ccn([C@@H]2O[C@H](CO)[C@@H](O)[C@H]2O)c(=O)[nH]1,activated human T cells,,human,1 µM,,T cell proliferation,73.9% and 50.9% and 67.5% and 59% and 55.1%
Cn1cc(-c2ccc(-c3cncc(Cl)c3N3CCC4(CCNC4=O)CC3)cc2)cn1,COLO 205,"gene expression, microarray, measured: G0S2 mRNA",,"concentration not given, 2 h",reference: untreated cells,log2 fold change,7.36
CCn1cc(-c2cc(Cn3ccoc3=N)cc3c2CCN([C@@H](C)c2cc(OC)ccn2)C3=O)c(C(F)(F)F)n1,RMUGS,cell growth,,120 h,,EC50,> 30 µM
O=C(NCc1cc[nH]n1)c1ccc([C@H]2[C@@H](F)[C@@H](F)C[C@@H](F)[C@H]2F)cc1,,liver microsome stability,cynomolgus liver microsomes,1 µM,,hepatic clearance,4.9 mL/min/kg
C[C@H]1[C@@H](O)O[C@@H]2O[C@@]3(C)CC[C@H]4[C@H](C)CC[C@@H]1[C@@]24OO3,KCL-22,"annexin V/PI flow cytometry, measured: annexin V-/PI-",,"3.2 µM, 24 h",,viable cells,90%

# A few entries again:
Compound,target or system,test,test system,conditions,how to read,endpoint,result
O=C(NCc1cc[nH]n1)c1ccc(C2CCCCC2)cc1,,liver microsome stability,mouse liver microsomes,1 µM,,hepatic clearance,82 mL/min/kg
